Results from different studies.
Lines come from different studies, so protocols differ. pEC50: −log10 of the molar value.
Organism: Leishmania infantum
Effect on: parasite growth

O=C(CN1C(=O)Cc2c([nH]c3ccc(Br)cc23)-c2ccc(Cl)cc21)N1CCOCC1  pEC50 (J774; 24 h, intracellular, amastigote): 6.30
COc1cc([C@@H]2c3cc4c(cc3[C@H](O)[C@H]3COC(=O)[C@H]23)OCO4)cc(OC)c1OC  pEC50 (mouse Splenocyte; 48 h, intracellular, amastigote): 4.87
O=C(NCCSCCNC(=O)c1cc(Br)c(Br)[nH]1)c1cc(Br)c(Br)[nH]1  pEC50 (MTT; 24 h, promastigote): ~4.70
Cc1ncnc2c1c(C#CC1CC1)cn2[C@@H]1O[C@H](CO)[C@@H](O)[C@H]1O  pEC50 (imaging; mouse Macrophage; 5 days, intracellular, amastigote): < 4.19
O=C(NCCCCNCCCNC(=O)c1cc(Br)c(Br)o1)c1cc(Br)c(Br)o1  pEC50 (MTT; 24 h, promastigote): ~4.70
CCCCCCCCCCCCCCCCOP(=O)([O-])OCC[N+](C)(C)C  pEC50 (mouse Splenocyte; 48 h, intracellular, amastigote): 5.62
C=Cc1cn([C@@H]2O[C@H](CO)[C@@H](O)[C@H]2O)c2ncnc(C)c12  pEC50 (imaging; mouse Macrophage; 5 days, intracellular, amastigote): < 4.19
C[C@@H]1[C@H](O)[C@@H](C)/C=C/C=C/C=C/C=C/C=C/C=C/C=C/[C@H](O[C@@H]2O[C@H](C)[C@@H](O)[C@H](N)[C@@H]2O)C[C@@H]2O[C@](O)(C[C@@H](O)C[C@@H](O)[C@H](O)CC[C@@H](O)C[C@@H](O)CC(=O)O[C@H]1C)C[C@H](O)[C@H]2C(=O)O  pEC50 (72 h, promastigote): 6.11
C[C@@H]1[C@H](O)[C@@H](C)/C=C/C=C/C=C/C=C/C=C/C=C/C=C/[C@H](O[C@@H]2O[C@H](C)[C@@H](O)[C@H](N)[C@@H]2O)C[C@@H]2O[C@](O)(C[C@@H](O)C[C@@H](O)[C@H](O)CC[C@@H](O)C[C@@H](O)CC(=O)O[C@H]1C)C[C@H](O)[C@H]2C(=O)O  pEC50 (J774; 24 h, intracellular, amastigote): 7.00
C=C(C)c1cn([C@@H]2O[C@H](CO)[C@@H](O)[C@H]2O)c2ncnc(C)c12  pEC50 (imaging; mouse Macrophage; 5 days, intracellular, amastigote): 6.10
